Results collected from several papers.
T1: DNA aptamer; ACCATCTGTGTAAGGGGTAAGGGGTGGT
T2: DNA aptamer; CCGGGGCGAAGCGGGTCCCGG
T3: DNA aptamer; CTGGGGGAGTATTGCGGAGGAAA
T4: DNA aptamer, truncated, engineered stem; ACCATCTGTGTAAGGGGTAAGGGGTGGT
T5: DNA aptamer; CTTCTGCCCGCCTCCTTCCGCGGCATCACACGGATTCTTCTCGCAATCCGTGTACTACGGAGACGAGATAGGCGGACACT
T6: DNA aptamer; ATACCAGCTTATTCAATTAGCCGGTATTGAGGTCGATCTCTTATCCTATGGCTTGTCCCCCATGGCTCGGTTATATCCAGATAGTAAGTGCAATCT
T7: DNA aptamer; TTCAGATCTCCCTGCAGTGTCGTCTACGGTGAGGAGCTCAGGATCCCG
T8: DNA aptamer 25 nt core; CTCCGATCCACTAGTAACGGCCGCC
T9: DNA aptamer; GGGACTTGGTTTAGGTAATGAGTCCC
T10: DNA aptamer; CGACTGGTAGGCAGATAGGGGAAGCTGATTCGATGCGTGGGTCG
T11: DNA aptamer; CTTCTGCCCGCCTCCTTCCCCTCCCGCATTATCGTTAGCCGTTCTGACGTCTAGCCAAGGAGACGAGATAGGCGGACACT
T12: DNA aptamer; CGGGGTGAAACGGGTCCCG
T13: DNA aptamer, 3' extension; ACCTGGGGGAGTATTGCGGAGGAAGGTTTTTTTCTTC

SMILES | target | assay | setting | Kd
CC(=O)[C@]1(O)Cc2c(O)c3c(c(O)c2[C@@H](O[C@H]2C[C@H](N)[C@H](O)[C@H](C)O2)C1)C(=O)c1ccccc1C3=O | T1, DNA aptamer | SWV | pH 7.4, apparent | 1.95 µM
C[C@@H]1Cc2ccc(C(=O)N[C@@H](Cc3ccccc3)C(=O)O)c(O)c2C(=O)O1 | T2, DNA aptamer | ITC | pH 7.4, 23 °C, reverse titration; single-site fit, with: 10 mM MgCl2 | 59.9 µM
Nc1ncnc2c1ncn2[C@@H]1O[C@H](COP(=O)(O)OP(=O)(O)OP(=O)(O)O)[C@@H](O)[C@H]1O | T3, DNA aptamer | electrochemical aptamer sensor | apparent, in serum | 17 µM
COc1cccc2c1C(=O)c1c(O)c3c(c(O)c1C2=O)C[C@@](O)(C(=O)CO)C[C@@H]3O[C@H]1C[C@H](N)[C@H](O)[C@H](C)O1 | T4, DNA aptamer, truncated, engineered stem | electrochemical aptamer sensor | apparent, one-site fit | 0.824 µM
CC(C)=CCC[C@](C)(O[C@@H]1O[C@H](CO)[C@@H](O)[C@H](O)[C@H]1O)[C@H]1CC[C@]2(C)[C@@H]1[C@H](O)C[C@@H]1[C@@]3(C)CC[C@H](O)C(C)(C)[C@@H]3[C@@H](O[C@@H]3O[C@H](CO)[C@@H](O)[C@H](O)[C@H]3O[C@@H]3O[C@@H](C)[C@H](O)[C@@H](O)[C@H]3O)C[C@]12C | T5, DNA aptamer | fluorescence of eluted aptamer | pH 8.5, room temperature | 2.3 µM
NC[C@H]1O[C@H](O[C@H]2[C@H](O)[C@@H](O[C@H]3O[C@H](CO)[C@@H](O)[C@H](N)[C@H]3O)[C@H](N)C[C@@H]2N)[C@H](O)[C@@H](O)[C@@H]1O | T6, DNA aptamer | MST |  | 260 µM
O=[N+]([O-])N=C1NCCN1Cc1ccc(Cl)nc1 | T7, DNA aptamer | differential pulse voltammetry | 30 min, pH 7.5, Na+ 150 mM, Mg2+ 2 mM | 0.0128 µM
CC(=O)N[C@H]1C(O)O[C@H](CO)[C@H](O)[C@@H]1O (stereo partly shown) | T8, DNA aptamer 25 nt core | SPR |  | 0.0583 µM
NC[C@H]1O[C@H](O[C@H]2[C@H](O)[C@@H](O[C@H]3O[C@H](CO)[C@@H](O)[C@H](N)[C@H]3O)[C@H](N)C[C@@H]2N)[C@H](O)[C@@H](O)[C@@H]1O | T9, DNA aptamer | square-wave voltammetry | apparent, surface-bound aptamer | 1780 µM
NCCc1c[nH]c2ccc(O)cc12 | T10, DNA aptamer | single-molecule carbon nanotube FET | pH 7.0 | 0.0316 µM
CC(C)=CCC[C@](C)(O[C@@H]1O[C@H](CO[C@@H]2O[C@H](CO)[C@@H](O)[C@H](O)[C@H]2O)[C@@H](O)[C@H](O)[C@H]1O)[C@H]1CC[C@]2(C)[C@@H]1[C@H](O)C[C@@H]1[C@@]3(C)CC[C@H](O[C@@H]4O[C@H](CO)[C@@H](O)[C@H](O)[C@H]4O[C@@H]4O[C@H](CO)[C@@H](O)[C@H](O)[C@H]4O)C(C)(C)[C@@H]3CC[C@]12C | T11, DNA aptamer | fluorescence of eluted aptamer | pH 8.5, room temperature | 4.9 µM
C[C@@H]1Cc2c(Cl)cc(C(=O)N[C@@H](Cc3ccccc3)C(=O)O)c(O)c2C(=O)O1 | T12, DNA aptamer | ITC | pH 7.4, 23 °C, reverse titration; single-site fit, with: 10 mM MgCl2 | 5.5 µM
Nc1ncnc2c1ncn2[C@@H]1O[C@H](COP(=O)(O)OP(=O)(O)OP(=O)(O)O)[C@@H](O)[C@H]1O | T13, DNA aptamer, 3' extension | square wave voltammetry | apparent, electrochemical aptamer sensor, assumed saturation | 134 µM

Repeated from above:
SMILES | target | assay | setting | Kd
Nc1ncnc2c1ncn2[C@@H]1O[C@H](COP(=O)(O)OP(=O)(O)OP(=O)(O)O)[C@@H](O)[C@H]1O | T3, DNA aptamer | electrochemical aptamer sensor | apparent, in serum | 17 µM
